Published values from different studies.
Lines come from different studies, so protocols differ. Numbers after ± are the reported error.
FGFR3: Fibroblast growth factor receptor 3 (FGFR3, Homo sapiens, UniProt P22607)
RMS3: RMS3 (Lathyrus oleraceus, UniProt A0A109QYD3)

Structure (SMILES) | target or system | test | system | setting | measurement | value
CSCC[C@H](NC(C)=O)C(=O)N[C@H](C(=O)N[C@@H](Cc1ccc(O)cc1)C(=O)N[C@@H](CCCNC(=N)N)C(=O)N[C@H]1CSCc2cc3cc(c2)CSC[C@H](NC(=O)[C@H](Cc2ccc(O)cc2)NC(=O)[C@@H]2CCCN2C1=O)C(=O)N[C@@H](CC(C)C)C(=O)N[C@@H](Cc1ccc(O)cc1)C(=O)N[C@@H](CC(C)C)C(=O)N[C@H](C(=O)N[C@@H](CC(C)C)C(=O)N[C@@H](CC(C)C)C(=O)N[C@H](C(=O)NCC(=O)N[C@@H](CO)C(=O)NCC(=O)N[C@@H](CO)C(=O)NCC(=O)N[C@@H](CO)C(=O)N[C@@H](CC(=O)O)C(=O)N[C@@H](Cc1ccc(O)cc1)C(=O)N[C@@H](CCCCN)C(=O)N[C@@H](CC(=O)O)C(=O)N[C@@H](CC(=O)O)C(=O)N[C@@H](CC(=O)O)C(=O)N[C@@H](CC(=O)O)C(=O)N[C@@H](CCCCN)C(N)=O)[C@@H](C)O)CSC3)C(C)C | FGFR3 | binding, BLI | – | – | Kd | 7.5 nM
CC(C)C[C@H](NC(=O)[C@H](CO)NC(=O)[C@@H]1CCCN1C(=O)[C@H](CCC(N)=O)NC(=O)[C@@H](NC(=O)[C@H](C)NC(=O)[C@H](CCCCN)NC(=O)[C@H](CC(C)C)NC(=O)[C@H](Cc1ccc(O)cc1)NC(=O)[C@H](COP(=O)(O)O)NC(=O)[C@H](CCC(=O)O)NC(=O)[C@H](CCCNC(=N)N)NC(=O)[C@H](CCCNC(=N)N)NC(=O)[C@H](C)NC(=O)[C@H](C)N)[C@@H](C)O)C(=O)O | Membrane-associated guanylate kinase, WW and PDZ domain-containing protein 2, GK domain (Magi2, Mus musculus, UniProt Q9WVQ1) | binding, isothermal titration calorimetry | – | pH 8.0, 25 °C | Kd | ~3800 nM
CCCCCCCCCCCCCCCC(=O)NCCCC[C@H](NC(=O)[C@H](CCCNC(=N)N)NC(=O)[C@H](Cc1ccc(O)cc1)NC(=O)[C@H](CC(C)C)NC(=O)[C@H](CCCNC(=N)N)NC(=O)CNS(=O)(=O)c1ccc(N)cc1)C(N)=O | ompA, beta-barrel domain (Escherichia coli, UniProt P0A910) | binding, surface plasmon resonance | – | β-barrel domain | Kd | ~96 nM
CC[C@H](C)[C@@H]1NC(=O)[C@H](CC(N)=O)NC(=O)[C@@H](Cc2ccc(O)cc2)NC(=O)CSC[C@@H](C(=O)NCC(N)=O)NC(=O)[C@H](CCCNC(=N)N)NC(=O)[C@H](Cc2ccc(O)cc2)NC(=O)[C@H](CC(C)C)NC(=O)[C@H]([C@@H](C)O)NC(=O)[C@H](CC(C)C)NC(=O)[C@H]([C@@H](C)O)NC(=O)[C@@H]2CCCN2C(=O)[C@H](CC(C)C)NC(=O)[C@H](CC(N)=O)NC(=O)[C@H](Cc2ccccc2)NC(=O)[C@H](C(C)C)NC(=O)[C@H](Cc2c[nH]c3ccccc23)NC1=O | Protein Wnt-3a, with afamin (Mus musculus, UniProt P27467) | binding, SPR single cycle kinetics | immobilised mWnt3a–human afamin complex | 25 °C | Kd | 490 nM
Nc1ncnc2c1ncn2[C@@H]1O[C@@H]2CO[P@@](O)(=S)O[C@H]2[C@H]1O | PRKAR1A (Bos taurus, UniProt P00514, R210K) | binding, NMR | – | – | Kd | 24000 nM
CC[C@H](C)[C@H](NC(=O)[C@H](CS)NC(=O)[C@H](CCC(N)=O)NC(=O)[C@H](CC(C)C)NC(=O)[C@H](CCCCN)NC(=O)[C@H](CCCNC(=N)N)NC(=O)[C@H](C)NC(=O)[C@@H](NC(=O)[C@H](CCC(N)=O)NC(=O)[C@@H](NC(=O)[C@H](CCC(=O)O)NC(=O)[C@H](C)NC(=O)[C@H](CCC(N)=O)NC(=O)[C@@H](N)Cc1c[nH]cn1)C(C)C)[C@@H](C)CC)C(=O)N[C@@H](C)C(=O)N[C@@H](CC(=O)O)C(=O)N[C@@H](CCC(N)=O)C(=O)N[C@@H](Cc1ccccc1)C(=O)N[C@@H](Cc1c[nH]cn1)C(=O)N[C@@H](CCCNC(=N)N)C(=O)N[C@@H](CC(C)C)C(=O)N[C@@H](Cc1c[nH]cn1)C(=O)N[C@H](C(=O)N[C@@H](CCC(N)=O)C(=O)N[C@@H](CCC(N)=O)C(=O)O)C(C)C | MCL1 (Homo sapiens, UniProt Q07820, A227D) | fluorescence polarization | – | fluorescently labelled compound | Kd | 49 nM
C=Cc1cc(OC)c2c(c1)c(=O)oc1c2cc(OC)c2c(O)ccc([C@@H]3O[C@H](C)[C@H](O)[C@@](C)(O)[C@H]3O)c21 | Bifunctional protein GlmU (Staphylococcus aureus, UniProt Q5HIH6) | binding, MST | – | – | Kd | 4.61 nM
CC1=C(C)[C@@H](Oc2c(F)cc3c(C)cc(=O)oc3c2F)OC1=O | RMS3 | binding, fluorescence | – | – | Kd | 581000 nM
CSCC[C@H](NC(C)=O)C(=O)N[C@@H](CC(=O)O)C(=O)N[C@@H](CO)C(=O)N[C@@H](CCCCN)C(=O)N[C@@H](Cc1ccc(O)cc1)C(=O)N[C@H](C(=O)N[C@H](C(=O)N[C@@H](CC(C)C)C(=O)N[C@@H](Cc1ccc(O)cc1)C(=O)N[C@@H](Cc1ccc(O)cc1)C(=O)N[C@@H](CCC(N)=O)C(=O)N[C@@H](CC(C)C)C(=O)N[C@@H](Cc1c[nH]c2ccccc12)C(=O)N[C@@H](Cc1c[nH]c2ccccc12)C(=O)N[C@@H](CCCCN)C(=O)NCC(=O)N[C@@H](CO)C(=O)NCC(=O)N[C@@H](CO)C(=O)NCC(=O)N[C@@H](CO)C(=O)N[C@@H](CC(=O)O)C(=O)N[C@@H](Cc1ccc(O)cc1)C(=O)N[C@@H](CCCCN)C(=O)N[C@@H](CC(=O)O)C(=O)N[C@@H](CC(=O)O)C(=O)N[C@@H](CC(=O)O)C(=O)N[C@@H](CC(=O)O)C(=O)N[C@@H](CCCCN)C(=O)N[C@@H](CCCCN=[N+]=[N-])C(N)=O)[C@@H](C)O)C(C)C | FGFR3 | binding, BLI | – | – | Kd | 39.4 nM
CC(C)CC(NC(=O)C(NC(=O)NC(C(=O)O)C(C)C)C1CCNC(=N)N1)C(=O)NCCCNC(C(=O)O)C(OC1OC(CN)C(O)C1O)C1OC(n2ccc(=O)[nH]c2=O)C(O)C1O (centres unmarked) | mraY (Aquifex aeolicus, UniProt O66465, Q305A) | binding, ITC | – | – | Kd | 117 nM
CC[C@H](C)[C@H](NC(=O)[C@H](CC(C)C)NC(=O)[C@H](CCCCN)NC(=O)[C@H](Cc1ccccc1)NC(=O)[C@@H]1CCCN1C(=O)[C@@H]1CCCN1C(=O)[C@H](CCCNC(=N)N)NC(=O)[C@@H](NC(=O)[C@H](CC(C)C)NC(=O)[C@H](CCCCN)NC(=O)[C@@H]1CCCN1C(=O)[C@H](CCCCN)NC(=O)[C@@H]1CCCN1C(=O)[C@H](CO)NC(=O)[C@H](CO)NC(=O)[C@H](Cc1c[nH]cn1)NC(=O)CNC(=O)[C@H](Cc1ccc(OS(=O)(=O)O)cc1)NC(=O)[C@@H](N)CC(=O)O)C(C)C)C(=O)N1CCC[C@H]1C(=O)N[C@@H](CC(N)=O)C(=O)O | LRR receptor-like serine/threonine-protein kinase GSO1, ectodomain (GSO1, Arabidopsis thaliana, UniProt C0LGQ5) | isothermal titration calorimetry | ectodomain | pH 5.0, 25 °C | Kd | ~40 nM
CCCCCc1cc(O)c2c(c1)OC(C)(C)C1CCC(C)=CC21 (single isomer, unassigned; (-)) | Cytochrome P450 2B6 (CYP2B6, Homo sapiens, UniProt P20813) | enzyme activity, inhibitor | human, liver microsomes | pH 7.4 | Ki | 7500 nM
CC(=O)NC1C(OC2C(O)C(CO)OC(O)C2OC2OC(C)C(O)C(O)C2O)OC(CO)C(O)C1O (centres unmarked) | Intermedilysin (Streptococcus intermedius, UniProt Q9LCB8) | binding | – | – | Kd | 9900 nM
N=C(N)NCCC[C@@H]1NC(=O)[C@H](CCCCNC(=O)CCOCCOCCOCCOCCNC(=O)CN2CCN(CC(=O)O)CCN(CC(=O)O)CCN(CC(=O)O)CC2)NC(=O)[C@@H](Cc2ccccc2)NC(=O)[C@H](CC(=O)O)NC(=O)CNC1=O [indium-111 labelled] | – | – | female athymic nude mice, heart | intravenous, 3 µCi, 72 h, U-87 MG glioma xenograft | tissue uptake | 0.09 ± 0.01 %ID/g
CN[C@](C)(C[18F])C(=O)O | A549 tumour model | – | host not given, lung | 30 min, tumour-bearing | tracer uptake | 2.8 %ID/g
CC[C@H](C)[C@@H]1NC(=O)[C@H](CC(C)C)NC(=O)[C@H](CCC(=O)O)NC(=O)CNC(=O)CNC(=O)[C@@H](NC(=O)[C@@H](NC(=O)[C@H](CCC(N)=O)NC(=O)[C@H](CC(C)C)NC(=O)[C@H](CCC(N)=O)NC(=O)[C@H](Cc2c[nH]cn2)NC(=O)[C@@H](N)[C@@H](C)O)C(C)C)CSSC[C@@H]2NC(=O)[C@@H](NC(=O)[C@H](C)NC(=O)[C@H](CC(=O)O)NC(=O)[C@H](C)NC(=O)[C@H](CC(C)C)NC(=O)CN)CSSC[C@H](NC(=O)[C@H](CCC(=O)O)NC(=O)[C@H](CC(N)=O)NC(=O)[C@H](CCCCN)NC2=O)C(=O)N[C@@H](CC(=O)O)C(=O)N[C@@H](CCC(=O)O)C(=O)N[C@@H](CC(N)=O)C(=O)N[C@@H](CCC(=O)O)C(=O)N[C@@H](CC(C)C)C(=O)N[C@@H](CC(=O)O)C(=O)N[C@@H](CCCNC(=N)N)C(=O)N[C@@H](Cc2ccc(O)cc2)C(=O)N[C@H](C(=O)N[C@@H](CC(N)=O)C(N)=O)CSSC[C@@H](C(=O)NCC(=O)N[C@@H](CC(=O)O)C(=O)N[C@@H](CCCNC(=N)N)C(=O)NCC(=O)N[C@H](C(=O)N[C@@H](Cc2ccc(O)cc2)C(=O)N[C@H](C(=O)N2CCC[C@H]2C(=O)N2CCC[C@H]2C(=O)N[C@@H](CCCNC(=N)N)C(=O)N[C@@H](CCCNC(=N)N)C(=O)O)[C@@H](C)O)C(C)C)NC(=O)[C@H](Cc2c[nH]cn2)NC(=O)[C@H](CCC(=O)O)NC(=O)[C@H]([C@@H](C)O)NC(=O)[C@H](CC(C)C)NC(=O)[C@H](C)NC(=O)[C@H](CC(=O)O)NC1=O | IGF1R (Homo sapiens, UniProt P08069) | ligand displacement, radioligand | – | – | Kd | 28.6 nM
CSCC[C@H](NC(=O)[C@H](CCCNC(=N)N)NC(=O)[C@H](CO)NC(=O)[C@@H](NC(=O)[C@H](CC(=O)O)NC(=O)[C@H](CC(=O)O)NC(=O)CCCCCNC(=O)c1ccc2c(c1)C(=O)OC21c2ccc(O)cc2Oc2cc(O)ccc21)[C@@H](C)O)C(=O)N[C@@H](CCC(=O)O)C(=O)N[C@@H](CCCCN)C(=O)N[C@H](C(=O)N[C@@H](CC(=O)O)C(=O)O)C(C)C | FKBP4 (Homo sapiens, UniProt Q02790) | binding, FP | – | pH 7.4 | Kd | > 25000 nM
CC1=C[C@H](O/C=C2/C(=O)O[C@@H]3c4ccccc4C[C@H]23)OC1=O (single isomer, unassigned) | RMS3 | binding, fluorescence | – | – | Kd | 15700 nM
N=C(N)NCCC[C@@H]1NC(=O)[C@H](CCCCNC(=O)CC[C@H](NC(=O)CCOCCOCCOCCOCCNC(=O)CC[C@H](NC(=O)CN2CCN(CC(=O)O)CCN(CC(=O)O)CCN(CC(=O)O)CC2)C(=O)NCCOCCOCCOCCOCCC(=O)N[C@@H](CCC(=O)NCCCC[C@@H]2NC(=O)[C@@H](Cc3ccccc3)NC(=O)[C@H](CC(=O)O)NC(=O)CNC(=O)[C@H](CCCNC(=N)N)NC2=O)C(=O)NCCCC[C@@H]2NC(=O)[C@@H](Cc3ccccc3)NC(=O)[C@H](CC(=O)O)NC(=O)CNC(=O)[C@H](CCCNC(=N)N)NC2=O)C(=O)NCCCC[C@@H]2NC(=O)[C@@H](Cc3ccccc3)NC(=O)[C@H](CC(=O)O)NC(=O)CNC(=O)[C@H](CCCNC(=N)N)NC2=O)NC(=O)[C@@H](Cc2ccccc2)NC(=O)[C@H](CC(=O)O)NC(=O)CNC1=O [indium-111 labelled] | – | – | female athymic nude mice, heart | intravenous, 3 µCi, 0.5 h, U-87 MG glioma xenograft | tissue uptake | 1.12 ± 0.2 %ID/g
Cc1cc(N)c2cc(NC(=O)c3ccc4c(-c5cccc(N)c5)cccc4c3)ccc2n1 | acrB (Escherichia coli, UniProt P31224) | binding, SPR | – | – | Kd | 20000 nM

For quick reference, copied from above:
Structure (SMILES) | target or system | test | system | setting | measurement | value
CCCCCCCCCCCCCCCC(=O)NCCCC[C@H](NC(=O)[C@H](CCCNC(=N)N)NC(=O)[C@H](Cc1ccc(O)cc1)NC(=O)[C@H](CC(C)C)NC(=O)[C@H](CCCNC(=N)N)NC(=O)CNS(=O)(=O)c1ccc(N)cc1)C(N)=O | ompA, beta-barrel domain (Escherichia coli, UniProt P0A910) | binding, surface plasmon resonance | – | β-barrel domain | Kd | ~96 nM
